Measurements pooled from the literature.
Numbered parts are unrelated; each lists some results of a single study. Changes are numbered by the printed parent chain.

Block 1
Target: UDP-N-acetylglucosamine--peptide N-acetylglucosaminyltransferase 110 kDa subunit (OGT, Homo sapiens, UniProt O15294)
Sequence of UniProt O15294 (whole entry, looked up): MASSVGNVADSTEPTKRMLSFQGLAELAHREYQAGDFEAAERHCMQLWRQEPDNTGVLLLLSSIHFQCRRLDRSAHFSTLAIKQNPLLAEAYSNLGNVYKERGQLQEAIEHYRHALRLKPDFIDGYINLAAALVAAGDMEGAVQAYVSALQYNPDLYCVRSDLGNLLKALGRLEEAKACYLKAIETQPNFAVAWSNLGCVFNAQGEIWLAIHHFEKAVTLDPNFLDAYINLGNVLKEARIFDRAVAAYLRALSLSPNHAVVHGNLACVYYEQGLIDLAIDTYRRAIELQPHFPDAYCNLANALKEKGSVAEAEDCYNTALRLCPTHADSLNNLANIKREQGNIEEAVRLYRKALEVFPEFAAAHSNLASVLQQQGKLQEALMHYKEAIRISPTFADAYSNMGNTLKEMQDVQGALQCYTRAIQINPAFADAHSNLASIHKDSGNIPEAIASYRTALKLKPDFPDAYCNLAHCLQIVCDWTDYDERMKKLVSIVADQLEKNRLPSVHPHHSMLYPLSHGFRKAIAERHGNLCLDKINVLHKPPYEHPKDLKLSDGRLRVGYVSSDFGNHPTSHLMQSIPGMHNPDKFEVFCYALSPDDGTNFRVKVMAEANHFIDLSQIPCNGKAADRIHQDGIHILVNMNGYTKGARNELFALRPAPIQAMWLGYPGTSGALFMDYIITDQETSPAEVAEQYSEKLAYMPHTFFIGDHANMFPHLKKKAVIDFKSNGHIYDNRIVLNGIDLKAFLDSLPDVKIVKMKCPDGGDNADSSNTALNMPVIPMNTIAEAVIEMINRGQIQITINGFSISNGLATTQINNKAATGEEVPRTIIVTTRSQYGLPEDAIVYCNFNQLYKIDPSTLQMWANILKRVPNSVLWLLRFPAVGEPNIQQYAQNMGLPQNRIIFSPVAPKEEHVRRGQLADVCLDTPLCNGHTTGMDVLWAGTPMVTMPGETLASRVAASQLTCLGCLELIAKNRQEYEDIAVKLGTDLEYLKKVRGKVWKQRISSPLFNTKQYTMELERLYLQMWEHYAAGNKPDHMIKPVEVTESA
Observed: binding
Method: phage display NGS
Form: peptide
Notes: panning round 2
Reference: input library
Endpoint: minimum log2 enrichment ratio
Molecule = DWSHMRSHNHASFAH; value = 2.64
Molecule = QNDRYLPAYVITYAR; value = 6.9
Molecule = AIYAQHPMHRTHIRI; value = 2.21
Molecule = KGVRETWLPAYTIVY; value = 1.91
Molecule = HMGMHQVLRIHQIHG; value = 2.56

Block 2
Target: CCND3, cyclin fold, Cln2 fusion (human)
Method: yeast growth competition, sequencing
Medium: yeast
Notes: weak parent motif
Reference: not given
Direction: higher = stronger binding
Endpoint: normalised enrichment score
Starting sequence: viral docking peptide; TSVRRALFTGGSD
Variant = TSVRRALFWGGSD [T9W]; value = 0.469
Variant = TSVRRALFEGGSD [T9E]; value = 0.13
Variant = TYVRRALFTGGSD [S2Y]; value = -0.131
Variant = TMVRRALFTGGSD [S2M]; value = 0.421
Variant = TSVRRALFVGGSD [T9V]; value = -0.00796
Variant = TPVRRALFTGGSD [S2P]; value = -0.143
Variant = TSVRRPLFTGGSD [A6P]; value = -0.116
Variant = TSHRRALFTGGSD [V3H]; value = 0.205
Variant = TSVRRAMFTGGSD [L7M]; value = 0.221
Variant = TSVRSALFTGGSD [R5S]; value = 0.0698
Variant = TSVRRALFTWGSD [G10W]; value = 0.17
Variant = TSVRRALKTGGSD [F8K]; value = 0.238
Variant = TSVRRANFTGGSD [L7N]; value = 0.441
Variant = TSCRRALFTGGSD [V3C]; value = 0.211
Variant = TSMRRALFTGGSD [V3M]; value = 0.232
Variant = TSVRRALFTVGSD [G10V]; value = -0.386
Variant = TSVRRAAFTGGSD [L7A]; value = 0.159
Variant = TSVRRALFTGGYD [S12Y]; value = 0.31
Variant = TSVRRAIFTGGSD [L7I]; value = -0.0465
Variant = TSVRRALDTGGSD [F8D]; value = 0.123
Variant = TSFRRALFTGGSD [V3F]; value = 0.606
Variant = TSVFRALFTGGSD [R4F]; value = -0.227
Variant = TSTRRALFTGGSD [V3T]; value = 0.0449

Block 3
Target: Probable WRKY transcription factor 50, DNA-binding domain (WRKY50, Arabidopsis thaliana, UniProt Q8VWQ5, residues 99-173)
Method: DNA-protein interaction ELISA
Form: double-stranded DNA, one strand shown
Medium: in vitro, bacterial lysate
Tested at: not given
Notes: whole dsDNA probe, crude lysate protein
Reference: highest signal in screen
Direction: higher = stronger binding
Endpoint: relative absorbance
Target sequence (chain): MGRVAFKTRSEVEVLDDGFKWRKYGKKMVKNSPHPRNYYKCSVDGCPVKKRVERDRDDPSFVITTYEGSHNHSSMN
Oligonucleotide = AAAAAACATTCCTAGTTCATGTTACTAAAA; value = 29.8 % of maximum
Oligonucleotide = AAAAAAACGCTATATATTGGTGCTAGAAAA; value = 24.7 % of maximum
Oligonucleotide = AAAAAATCCGTTCCCATTTGTCCGTCAAAA; value = 27.4 % of maximum
Oligonucleotide = AAAAAATTACTTCTCCCTTCCTTTGCAAAA; value = 40.9 % of maximum
Oligonucleotide = AAAAAACGCCTTATGCCTCCCGCTCGAAAA; value = 11.8 % of maximum
Oligonucleotide = AAAAAATGTTGTTGCTGTTGGTCCTAAAAA; value = 28.1 % of maximum
Oligonucleotide = AAAAAAAATTAGTCTCTTCGTCTCCCAAAA; value = 25 % of maximum
Oligonucleotide = AAAAAATATTCCGCTTTTGGCTGAATAAAA; value = 31.7 % of maximum

Block 4
Target: PABPC1L2, full length, GST fusion (mouse, UniProt A0ABA7IW68)
Method: RNAcompete
Form: RNA
Medium: in vitro
Tested at: 20 nM
Notes: 7-mer, probes averaged, single round
Reference: mean of 7-mers
Direction: higher = stronger binding
Endpoint: 7-mer Z-score
Construct (chain): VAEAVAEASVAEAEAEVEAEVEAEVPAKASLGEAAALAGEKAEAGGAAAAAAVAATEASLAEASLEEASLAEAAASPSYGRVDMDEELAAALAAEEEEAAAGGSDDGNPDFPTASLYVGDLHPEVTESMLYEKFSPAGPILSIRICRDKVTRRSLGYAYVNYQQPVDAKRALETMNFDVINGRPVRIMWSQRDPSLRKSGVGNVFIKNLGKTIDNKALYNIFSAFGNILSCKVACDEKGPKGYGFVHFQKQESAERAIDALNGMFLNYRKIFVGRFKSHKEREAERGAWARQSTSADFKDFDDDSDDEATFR
Oligonucleotide = UAAUCCU; value = -0.338
Oligonucleotide = UAUUUGG; value = -0.293
Oligonucleotide = UGCCAUA; value = -0.175
Oligonucleotide = GAAAGGA; value = 0.349
Oligonucleotide = AGGGGCA; value = 0.68
Oligonucleotide = UAGGGGG; value = 0.521
Oligonucleotide = GCUCAUG; value = -0.122
Oligonucleotide = AUUAUGA; value = 0.0678

Single results of other studies
Method: cross-linking MS
Molecule = JUP (Homo sapiens, UniProt P14923); partner = DSP (Homo sapiens, UniProt P15924); notes = hits only; endpoint = interaction screen; value = cross-linked
Molecule = GARS1 (Homo sapiens, UniProt P41250); partner = CHD7 (Homo sapiens, UniProt Q9P2D1); medium = cell fractions; together with = DSSO; endpoint = cross-linked residues; value = K318 to K678
Molecule = HNRNPA1 (Homo sapiens, UniProt P09651); partner = PTBP1 (Homo sapiens, UniProt P26599); notes = hits only; endpoint = interaction screen; value = cross-linked
Molecule = AP3D1 (Homo sapiens, UniProt O14617); partner = AP3S1 (Homo sapiens, UniProt Q92572); notes = hits only; endpoint = interaction screen; value = cross-linked

A few entries again (block 2):
Variant = TSVRRALFTWGSD [G10W]; value = 0.17
Variant = TSVRRALKTGGSD [F8K]; value = 0.238
Variant = TSVRRANFTGGSD [L7N]; value = 0.441
Variant = TSCRRALFTGGSD [V3C]; value = 0.211
Variant = TSMRRALFTGGSD [V3M]; value = 0.232
Variant = TSVRRALFTVGSD [G10V]; value = -0.386
